Measurements collected from several papers.
± marks the error that the study gave.

SMILES = C[n+]1ccc(/C=N/NC(=O)c2cccc(C(=O)N/N=C/c3cc[n+](C)cc3)n2)cc1; target or system = telomeric G4 DNA hybrid-2; assay = FRET melting; conditions = 1 µM, DNA 0.2 µM; quantity = ΔTm; result = 8.5 ± 1 °C
SMILES = CN1CCCNC(=O)c2cccc(c2)C(=O)NCCCN(C)CCCNc2cccc3c2C(=O)c2cccc(c2C3=O)NCCC1; target or system = SAS; assay = RNA-Seq, refers to: KIF20B mRNA; conditions = 1 µM, 6 h; how to read = relative to: untreated cells; quantity = log2 fold change; result = -0.716
SMILES = C=CC(=O)Nc1cccc(Cn2ncc3cnc(Nc4cnn(CCOC)c4)nc32)c1; target or system = BMPR1B human; assay = binding, KINOMEscan; conditions = 100 nM; how to read = lower = stronger binding; quantity = percent of control; result = 67%
SMILES = O=C(N/N=C/c1cc[n+](CC2CC2)c2ccccc12)N/N=C/c1cc[n+](CC2CC2)c2ccccc12; target or system = telomeric G4 DNA hybrid-2; assay = FRET melting; conditions = 1 µM, DNA 0.2 µM, together with: duplex DNA competitor 10 µM; quantity = ΔTm; result = 4.4 ± 0.8 °C
SMILES = COC1CN([C@H]2CC[C@H]([C@@]3(C)Oc4c(Cl)cc(C(=O)NCc5c(SC)cc(C)[nH]c5=O)c(C)c4O3)CC2)C1; assay = RNA-seq, refers to: PTX3; test system = human, whole blood; conditions = dose not given, 24 h; how to read = relative to: pretreatment baseline; quantity = log2 fold change; result = 1.55
SMILES = Cc1ncsc1-c1ccc(C(C)NC(=O)C2CC(O)CN2C(=O)C(NC(=O)CCCCCCCCCCN2CCCC(Nc3ncc(Cl)c(Nc4ccccc4S(=O)(=O)C(C)C)n3)C2)C(C)(C)C)cc1 (stereo not shown); target or system = 22Rv1; assay = RNA-seq, refers to: MBD5 mRNA; conditions = concentration not given; how to read = relative to: DMSO; quantity = log2 fold change; result = -1.18
SMILES = C[n+]1ccc(/C=N/NC(=O)c2ccc3ccc4ccc(C(=O)N/N=C/c5cc[n+](C)cc5)nc4c3n2)cc1; target or system = telomeric G4 DNA hybrid-2; assay = FRET melting; conditions = 1 µM, DNA 0.2 µM, together with: duplex DNA competitor 10 µM; quantity = ΔTm; result = 29.2 ± 0.9 °C
SMILES = CC(=O)[O-].O.O.O.O.[Co+2].[O-]c1ccc(Br)cc1C=NCCN1CCOCC1; assay = FRAP; conditions = 160 µM; quantity = ferric reducing power; result = 38.6%
SMILES = CNS(=O)(=O)Nc1nccc(Cc2c(C)c3ccc(Oc4ncccc4F)cc3oc2=O)c1F; target or system = HuCCT-1; assay = cell viability; conditions = 7 days; quantity = IC50; result = > 1000 nM
SMILES = CC[n+]1cccc2cc(/C=N/NC(=O)C(=O)N/N=C/c3ccc4c(ccc[n+]4CC)c3)ccc21; target or system = telomeric G4 DNA hybrid-2; assay = FRET melting; conditions = 1 µM, DNA 0.2 µM; quantity = ΔTm; result = 3.2 ± 0.8 °C
SMILES = CC(C)(C)c1cc(-c2ccc3cccnc3n2)nc(-c2ccc3cccnc3n2)c1.[Cl-].[Cl-].[Ru+2].c1ccc2cc3nc4c5cccnc5c5ncccc5c4nc3cc2c1; target or system = B16-F10; assay = resazurin; conditions = together with: light 733 nm, 100 J/cm2; how to read = relative to: dark EC50 over light EC50; quantity = phototoxicity index; result = 4
SMILES = C=CC(=O)N1[C@@H](c2ccc3c(c2)OCO3)c2[nH]c3ccccc3c2C[C@H]1C(=O)N1CCN(C)CC1; target or system = human cyclin E1 N112C-3xFLAG:CDK2; assay = co-IP with TMT proteomics, refers to: TRIM21; conditions = concentration not given, P19474; how to read = relative to: wild type DMSO; quantity = relative co-enrichment; result = 104%
SMILES = Nc1ncc(-c2cc(-c3cnn(CC(F)(F)F)c3)ncc2F)nc1C(=O)NC1CNCC(F)C1 (stereo not shown); target or system = CDKL1; assay = KINOMEscan; conditions = 1 µM; how to read = relative to: DMSO control; quantity = remaining binding; result = 71%

Excerpt of the above:
SMILES = CC[n+]1cccc2cc(/C=N/NC(=O)C(=O)N/N=C/c3ccc4c(ccc[n+]4CC)c3)ccc21; target or system = telomeric G4 DNA hybrid-2; assay = FRET melting; conditions = 1 µM, DNA 0.2 µM; quantity = ΔTm; result = 3.2 ± 0.8 °C
